Experimental data pooled from the literature.
Compare with care: the assays were run in different laboratories. Values joined by “and” are separate records of one study, mostly repeats; a detail may differ. Numbers after ± are the reported error.
OPRL1: Nociceptin receptor (OPRL1, Homo sapiens, UniProt P41146)
Botulinum neurotoxin type A light chain: Botulinum neurotoxin type A, light chain (Clostridium botulinum, UniProt P0DPI0)
rep R3428I 3C-like proteinase: Replicase polyprotein 1ab, 3C-like proteinase (rep, Severe acute respiratory syndrome-related coronavirus, UniProt P0C6X7, R3428I)
Replicase polyprotein 1a R3428I 3C-like proteinase: Replicase polyprotein 1a, 3C-like proteinase (Severe acute respiratory syndrome-related coronavirus, UniProt P0C6U8, R3428I)
Ricin A chain: Ricin, A chain (Ricinus communis, UniProt P02879)

Protein sequences, listed by entry. Tags and fused reporters are not part of them. Residues count along the entry.
UniProt P41146, whole entry: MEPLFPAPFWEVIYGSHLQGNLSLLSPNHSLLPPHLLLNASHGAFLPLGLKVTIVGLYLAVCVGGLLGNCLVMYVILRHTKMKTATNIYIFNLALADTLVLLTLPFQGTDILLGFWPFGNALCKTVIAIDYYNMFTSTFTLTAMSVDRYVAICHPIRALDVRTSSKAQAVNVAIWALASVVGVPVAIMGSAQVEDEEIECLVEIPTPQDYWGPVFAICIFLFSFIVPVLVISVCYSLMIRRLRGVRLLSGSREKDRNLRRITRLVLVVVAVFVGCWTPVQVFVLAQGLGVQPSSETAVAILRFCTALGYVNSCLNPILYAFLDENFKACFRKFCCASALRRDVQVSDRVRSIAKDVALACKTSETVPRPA
UniProt Q869C3, whole entry, looked up: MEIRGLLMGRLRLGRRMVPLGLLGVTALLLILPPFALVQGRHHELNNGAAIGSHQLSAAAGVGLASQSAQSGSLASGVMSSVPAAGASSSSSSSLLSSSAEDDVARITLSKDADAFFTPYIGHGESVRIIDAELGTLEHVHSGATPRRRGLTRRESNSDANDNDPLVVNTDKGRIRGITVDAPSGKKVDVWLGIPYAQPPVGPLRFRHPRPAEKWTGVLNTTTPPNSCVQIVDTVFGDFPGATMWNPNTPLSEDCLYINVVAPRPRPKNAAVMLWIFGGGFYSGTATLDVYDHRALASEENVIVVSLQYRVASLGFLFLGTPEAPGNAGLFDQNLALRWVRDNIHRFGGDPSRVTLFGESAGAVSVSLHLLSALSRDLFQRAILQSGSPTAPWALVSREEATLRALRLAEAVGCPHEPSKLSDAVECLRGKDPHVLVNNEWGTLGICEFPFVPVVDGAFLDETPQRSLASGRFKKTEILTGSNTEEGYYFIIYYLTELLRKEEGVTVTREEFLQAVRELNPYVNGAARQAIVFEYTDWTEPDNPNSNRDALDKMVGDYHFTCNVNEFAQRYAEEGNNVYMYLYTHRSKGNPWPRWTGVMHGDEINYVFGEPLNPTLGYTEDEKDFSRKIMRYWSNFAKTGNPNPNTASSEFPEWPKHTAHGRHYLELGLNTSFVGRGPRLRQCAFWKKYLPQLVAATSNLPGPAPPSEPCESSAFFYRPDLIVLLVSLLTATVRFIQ
UniProt P04757, 26-499 limits assumed: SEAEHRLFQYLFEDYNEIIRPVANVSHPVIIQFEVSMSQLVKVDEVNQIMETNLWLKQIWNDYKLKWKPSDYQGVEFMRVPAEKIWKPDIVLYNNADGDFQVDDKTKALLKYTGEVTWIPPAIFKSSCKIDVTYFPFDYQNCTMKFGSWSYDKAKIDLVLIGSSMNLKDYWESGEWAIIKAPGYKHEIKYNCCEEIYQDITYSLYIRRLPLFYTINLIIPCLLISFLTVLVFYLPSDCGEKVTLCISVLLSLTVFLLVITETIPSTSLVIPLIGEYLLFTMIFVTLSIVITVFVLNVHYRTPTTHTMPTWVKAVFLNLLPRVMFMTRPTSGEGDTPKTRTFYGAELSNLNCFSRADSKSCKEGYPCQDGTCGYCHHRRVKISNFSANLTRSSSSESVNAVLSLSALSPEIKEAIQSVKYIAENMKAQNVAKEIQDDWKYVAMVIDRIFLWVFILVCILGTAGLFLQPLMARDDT
UniProt P04757, whole entry, looked up: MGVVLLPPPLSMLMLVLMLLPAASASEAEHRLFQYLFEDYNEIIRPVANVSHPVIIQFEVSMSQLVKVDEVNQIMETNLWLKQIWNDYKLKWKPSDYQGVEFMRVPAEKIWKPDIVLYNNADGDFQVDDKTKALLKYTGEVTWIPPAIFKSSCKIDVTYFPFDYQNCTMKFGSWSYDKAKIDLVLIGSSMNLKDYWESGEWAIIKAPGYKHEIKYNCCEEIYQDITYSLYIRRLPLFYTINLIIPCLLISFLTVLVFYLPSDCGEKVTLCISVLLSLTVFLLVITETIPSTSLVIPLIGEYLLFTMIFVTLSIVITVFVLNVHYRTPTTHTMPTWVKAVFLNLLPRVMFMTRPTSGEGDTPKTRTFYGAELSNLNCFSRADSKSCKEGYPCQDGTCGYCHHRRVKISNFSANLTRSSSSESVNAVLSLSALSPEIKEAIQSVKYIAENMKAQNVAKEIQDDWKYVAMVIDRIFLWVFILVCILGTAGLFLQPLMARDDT
UniProt P12392, 21-495 limits assumed: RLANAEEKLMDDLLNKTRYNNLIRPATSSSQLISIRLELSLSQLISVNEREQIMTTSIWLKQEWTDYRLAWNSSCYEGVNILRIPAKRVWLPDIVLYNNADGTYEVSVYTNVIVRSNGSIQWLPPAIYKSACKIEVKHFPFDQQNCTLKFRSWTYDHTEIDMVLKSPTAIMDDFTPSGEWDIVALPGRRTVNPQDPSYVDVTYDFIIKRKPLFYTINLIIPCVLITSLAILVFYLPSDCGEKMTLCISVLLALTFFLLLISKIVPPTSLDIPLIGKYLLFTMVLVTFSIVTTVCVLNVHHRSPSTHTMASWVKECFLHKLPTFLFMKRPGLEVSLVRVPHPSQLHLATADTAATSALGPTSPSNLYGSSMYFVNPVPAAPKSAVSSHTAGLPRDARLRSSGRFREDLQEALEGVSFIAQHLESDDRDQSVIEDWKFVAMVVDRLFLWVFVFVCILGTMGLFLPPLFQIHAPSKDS
UniProt P32300, whole entry: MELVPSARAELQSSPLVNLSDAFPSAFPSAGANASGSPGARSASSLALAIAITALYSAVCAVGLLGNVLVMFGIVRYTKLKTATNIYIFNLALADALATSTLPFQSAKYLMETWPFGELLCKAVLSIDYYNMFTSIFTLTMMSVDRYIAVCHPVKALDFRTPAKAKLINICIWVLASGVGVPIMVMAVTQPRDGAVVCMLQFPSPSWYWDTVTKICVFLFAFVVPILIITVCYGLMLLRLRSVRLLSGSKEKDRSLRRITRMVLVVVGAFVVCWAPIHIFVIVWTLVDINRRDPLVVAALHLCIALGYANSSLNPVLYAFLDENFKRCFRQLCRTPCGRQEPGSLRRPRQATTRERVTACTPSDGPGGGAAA
UniProt P12390, whole entry, looked up: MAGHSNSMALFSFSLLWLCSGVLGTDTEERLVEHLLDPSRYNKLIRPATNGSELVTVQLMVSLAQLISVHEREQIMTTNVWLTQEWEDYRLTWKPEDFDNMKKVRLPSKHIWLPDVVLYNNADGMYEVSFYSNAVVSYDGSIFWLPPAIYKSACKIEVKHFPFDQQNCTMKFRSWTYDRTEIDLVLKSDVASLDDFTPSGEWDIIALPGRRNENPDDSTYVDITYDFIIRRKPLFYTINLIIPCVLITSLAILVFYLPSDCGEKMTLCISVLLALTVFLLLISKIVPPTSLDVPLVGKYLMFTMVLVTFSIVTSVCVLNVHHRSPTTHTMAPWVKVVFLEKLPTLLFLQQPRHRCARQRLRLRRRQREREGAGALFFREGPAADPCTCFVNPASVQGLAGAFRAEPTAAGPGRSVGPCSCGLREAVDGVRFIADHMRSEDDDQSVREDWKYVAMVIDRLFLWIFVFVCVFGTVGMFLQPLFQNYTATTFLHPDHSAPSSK
UniProt P43143, whole entry M241L/F253L/V303I/V320I/I327V/A333T/K339T, looked up: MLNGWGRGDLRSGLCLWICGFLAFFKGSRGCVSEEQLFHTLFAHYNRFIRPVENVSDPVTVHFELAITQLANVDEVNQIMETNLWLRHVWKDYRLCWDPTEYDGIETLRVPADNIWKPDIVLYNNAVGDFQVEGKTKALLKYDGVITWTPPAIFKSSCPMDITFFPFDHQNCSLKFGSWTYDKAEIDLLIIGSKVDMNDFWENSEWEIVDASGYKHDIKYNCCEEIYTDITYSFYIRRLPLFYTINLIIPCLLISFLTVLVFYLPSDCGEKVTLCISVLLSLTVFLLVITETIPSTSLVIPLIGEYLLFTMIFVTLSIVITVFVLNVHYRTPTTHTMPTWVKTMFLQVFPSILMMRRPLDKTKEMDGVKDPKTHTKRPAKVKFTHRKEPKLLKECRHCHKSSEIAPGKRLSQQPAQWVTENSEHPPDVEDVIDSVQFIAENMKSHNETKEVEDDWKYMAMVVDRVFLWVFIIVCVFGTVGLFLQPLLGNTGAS
UniProt P49582, 23-502 limits assumed: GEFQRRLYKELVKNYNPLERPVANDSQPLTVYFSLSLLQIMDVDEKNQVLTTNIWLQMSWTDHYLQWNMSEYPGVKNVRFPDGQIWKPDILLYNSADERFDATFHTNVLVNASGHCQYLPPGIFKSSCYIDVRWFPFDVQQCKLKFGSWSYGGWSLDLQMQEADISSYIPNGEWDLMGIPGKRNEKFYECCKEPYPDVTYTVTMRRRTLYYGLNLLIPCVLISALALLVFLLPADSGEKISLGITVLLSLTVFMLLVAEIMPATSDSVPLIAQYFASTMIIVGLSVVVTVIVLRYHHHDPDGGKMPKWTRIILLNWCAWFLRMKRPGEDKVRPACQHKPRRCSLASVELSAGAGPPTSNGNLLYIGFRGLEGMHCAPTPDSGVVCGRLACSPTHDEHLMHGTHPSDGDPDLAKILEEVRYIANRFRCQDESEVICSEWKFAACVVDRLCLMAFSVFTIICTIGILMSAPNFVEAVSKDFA
UniProt P36544, 23-502 limits assumed: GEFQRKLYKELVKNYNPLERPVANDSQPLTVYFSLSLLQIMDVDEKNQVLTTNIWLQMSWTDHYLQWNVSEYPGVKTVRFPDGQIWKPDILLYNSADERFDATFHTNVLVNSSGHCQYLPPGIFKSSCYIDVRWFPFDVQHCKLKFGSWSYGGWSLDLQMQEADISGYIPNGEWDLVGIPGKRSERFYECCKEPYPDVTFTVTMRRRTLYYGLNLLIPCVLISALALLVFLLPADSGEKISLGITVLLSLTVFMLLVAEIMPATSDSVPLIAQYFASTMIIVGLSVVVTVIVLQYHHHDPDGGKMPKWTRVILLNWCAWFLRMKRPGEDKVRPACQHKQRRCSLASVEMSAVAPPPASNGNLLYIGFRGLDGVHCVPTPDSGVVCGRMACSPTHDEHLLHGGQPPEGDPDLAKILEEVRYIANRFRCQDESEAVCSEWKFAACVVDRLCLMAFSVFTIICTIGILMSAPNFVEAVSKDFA
UniProt P06401, whole entry: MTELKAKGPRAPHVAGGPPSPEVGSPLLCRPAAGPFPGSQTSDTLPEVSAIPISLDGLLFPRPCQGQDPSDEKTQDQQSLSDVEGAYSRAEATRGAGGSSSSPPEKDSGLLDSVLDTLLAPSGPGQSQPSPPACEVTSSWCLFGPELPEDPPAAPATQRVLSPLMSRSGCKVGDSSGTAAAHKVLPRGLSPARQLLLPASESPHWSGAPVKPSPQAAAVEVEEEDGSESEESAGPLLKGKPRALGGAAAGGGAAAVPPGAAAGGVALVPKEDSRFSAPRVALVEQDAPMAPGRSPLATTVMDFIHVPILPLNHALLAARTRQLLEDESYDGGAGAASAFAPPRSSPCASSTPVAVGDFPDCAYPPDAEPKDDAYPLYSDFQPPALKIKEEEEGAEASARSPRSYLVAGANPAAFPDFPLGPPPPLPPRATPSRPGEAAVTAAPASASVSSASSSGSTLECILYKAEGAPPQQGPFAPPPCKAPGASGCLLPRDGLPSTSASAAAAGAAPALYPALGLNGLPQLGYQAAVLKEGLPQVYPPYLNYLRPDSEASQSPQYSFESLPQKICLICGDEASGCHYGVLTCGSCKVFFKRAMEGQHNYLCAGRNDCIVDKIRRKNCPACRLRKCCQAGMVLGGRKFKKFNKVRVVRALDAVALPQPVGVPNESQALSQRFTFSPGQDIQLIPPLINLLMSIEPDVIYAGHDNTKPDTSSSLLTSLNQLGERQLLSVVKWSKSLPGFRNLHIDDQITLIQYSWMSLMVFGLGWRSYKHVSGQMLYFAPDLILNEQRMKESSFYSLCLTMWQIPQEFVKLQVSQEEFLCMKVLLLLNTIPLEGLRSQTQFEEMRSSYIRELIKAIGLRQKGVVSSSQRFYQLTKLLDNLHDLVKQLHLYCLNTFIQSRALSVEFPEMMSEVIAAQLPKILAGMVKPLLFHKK

`CCC1C(=O)N(C2CCN(Cc3cccc4[nH]ccc34)CC2)c2ccccc21` (centres unmarked) has a Ki of 0.0111 ± 0.00028 µM (OPRL1; radioligand displacement; together with: [3H]N/OFQ).
`CC[C@H](CC[C@@H](C)[C@H]1CC[C@H]2[C@@H]3CC=C4C[C@@H](O)CC[C@]4(C)[C@H]3CC[C@]12C)C(C)C` has an IC50 of 115 µM (Replicase polyprotein 1ab, 3C-like proteinase (rep, Severe acute respiratory syndrome-related coronavirus, UniProt P0C6X7); 3CLpro cleavage, inhibitor, ELISA; 3 h).
For `CCc1ccc(CN2CCC(n3nccc3NC(=O)c3ccc4c(c3)OCO4)CC2)cc1`, the IC50 was 26 ± 11 µM (Botulinum neurotoxin type A light chain; inhibitor, FRET, SNAPtide substrate; no reducing agent).
For `CC(C)C[C@H](NC(=O)[C@@H](NC(=O)COc1ccccc1)C(C)C)C(=O)N[C@@H](C[C@@H]1CCNC1=O)C(=O)c1nc2ccccc2s1`, the IC50 was 2.3 µM (rep R3428I 3C-like proteinase; enzyme activity, inhibitor, HPLC; 60 min, 37 °C, together with: substrate 111 µM).
The IC50 of `O=C(O)c1cc(-c2ccc(-c3c(-c4ccc5c(c4)OCO5)noc3-c3ccsc3)cc2)nc2ccccc12` is reported as 56 µM (Botulinum neurotoxin type A light chain; inhibitor, FRET, YFP-SNAP25-CFP substrate; 1.25 mM DTT).
The IC50 of `CSCC[C@H](NC(=O)[C@H](CC(=O)O)NC(=O)[C@H](CC(=O)O)NC(=O)[C@H](CC(=O)O)NC(=O)[C@@H](N)CO)C(=O)NCC(=O)N[C@@H](Cc1ccccc1)C(=O)NCC(=O)N[C@@H](CC(C)C)C(=O)N[C@@H](Cc1ccccc1)C(=O)N[C@@H](CC(=O)O)C(=O)O` is reported as 30 ± 4 µM (Shiga-like toxin 2 subunit A, A1 fragment (UniProt P09385); ribosome depurination; yeast ribosomes; pH 7.4).
With `CC(C)(C)C(=O)OC[C@H](NC(=O)/C=C/c1ccccc1)C(=O)NC1CCCCC1` the IC50 was 450 µM (rep R3428I 3C-like proteinase; enzyme activity, inhibitor, HPLC substrate depletion; pH 4.0).
With `CCOP(=O)(OCC)Oc1ccc([N+](=O)[O-])cc1` the IC50 was 0.0836 µM (Ace (Anopheles gambiae, UniProt Q869C3); enzyme activity, inhibitor, Ellman; 10 min, room temperature, together with: acetylthiocholine).
For `O=C1NN(c2ccccc2)C(=O)/C1=C\c1ccc(-c2cc([N+](=O)[O-])ccc2O)o1`, the IC50 was 43 ± 7 µM (Botulinum neurotoxin type A light chain; inhibitor, FRET, YFP-SNAP25-CFP substrate; no reducing agent).
The IC50 of `O=C(/C=C/c1ccccc1)N[C@@H](c1ccccc1)[C@@H](OC(=O)c1ccccc1)C(=O)NC1CCCCC1` is reported as 43 µM (Replicase polyprotein 1a R3428I 3C-like proteinase; enzyme activity, inhibitor; pH 4.0).
For `Nc1nc2nc(C(=O)NCc3ccccn3)cnc2c(=O)[nH]1`, the IC50 was 500 µM (Ricin A chain; recovery of translation, inhibitor, in vitro luciferase translation; rabbit reticulocyte lysate).
`O=C(/C=C/c1ccccc1)N[C@@H](COC(=O)[C@@H]1CCC(=O)N1)C(=O)NC1CCCCC1` gave an IC50 of greater than 1600 µM (rep R3428I 3C-like proteinase; enzyme activity, inhibitor, HPLC substrate depletion; pH 4.0).
For `NC12CC3CC(CC(C3)C1)C2`, the EC50 was less than 1 µM (Influenza A virus; viral replication, plaque size reduction; MDCK, A/Swine/Iowa/11-0918/2010 (H1N1)).
With `CC[C@H](C)[C@@H]1NC(=O)[C@H](CCC(=O)O)NC(=O)[C@@H]2CCCN2C(=O)[C@H](Cc2c[nH]cn2)NC(=O)[C@H](CCCCC(=O)O)NC(=O)[C@H](CC(C)C)NC(=O)[C@H](Cc2c[nH]cn2)NC(=O)[C@@H]2CSSC[C@H](NC(=O)CN)C(=O)N[C@@H](CSSC[C@@H](C(N)=O)NC1=O)C(=O)N[C@@H](CO)C(=O)N[C@@H](Cc1c[nH]cn1)C(=O)N1CCC[C@H]1C(=O)N[C@@H](C)C(=O)N2` the IC50 was 0.341 µM (Neuronal acetylcholine receptor; alpha3/beta4 (Rattus norvegicus, UniProt P04757+P12392); ACh-evoked current, antagonist, two-electrode voltage clamp; Xenopus laevis oocytes; together with: ACh 300 µM).
`O=CN1CC[C@]23c4c5ccc(O)c4O[C@H]2[C@@H](O)C=C[C@H]3[C@H]1C5` has an IC50 of greater than 10 µM (Oprd1 (Mus musculus, UniProt P32300); mouse vas deferens).
`COc1cccc(/C=C/C(=O)O[C@@H](C(=O)NC2CCCCC2)[C@@H](NC(=O)/C=C/c2ccccc2)c2ccccc2)c1` gave an IC50 of 65 µM (Replicase polyprotein 1a R3428I 3C-like proteinase; enzyme activity, inhibitor; pH 4.0).
`O=C(/C=C/c1ccccc1)N[C@@H](COC(=O)CCc1ccccc1)C(=O)NC1CCCCC1` gave an IC50 of 120 µM (rep R3428I 3C-like proteinase; enzyme activity, inhibitor, HPLC substrate depletion; pH 4.0).
With `CC(C)C[C@@H]1NC(=O)[C@H](CCC(=O)O)NC(=O)[C@@H]2CCCN2C(=O)[C@H](Cc2c[nH]cn2)NC(=O)[C@H](CC(N)=O)NC(=O)[C@H](C(C)C)NC(=O)[C@H](CC(N)=O)NC(=O)[C@@H]2CSSC[C@H](NC(=O)CN)C(=O)N[C@@H](CSSC[C@@H](C(N)=O)NC1=O)C(=O)N[C@@H](CO)C(=O)N[C@@H](Cc1c[nH]cn1)C(=O)N1CCC[C@H]1C(=O)N[C@@H](C)C(=O)N2` the IC50 was 0.016 µM (Chrna3/Chrnb2/Chrna6, with beta3 subunit (Rattus norvegicus, UniProt P04757+P12390+P43143); ion current, antagonist, two-electrode voltage clamp; Xenopus laevis oocytes; together with: 100 µM acetylcholine).
`CC[C@H](C)[C@H](NC(=O)[C@H](Cc1ccc(O)cc1)NC(=O)[C@H](CO)NC(=O)[C@H](CCC(=O)O)NC(=O)[C@H](CC(N)=O)NC(=O)[C@H](CC(C)C)NC(=O)[C@H](C)NC(=O)[C@H](CCCCN)NC(=O)[C@@H](NC(=O)[C@@H](NC(=O)[C@H](CCC(N)=O)NC(=O)[C@H](CCC(N)=O)NC(=O)[C@H](CC(C)C)NC(=O)[C@H](CO)NC(=O)[C@H](CC(C)C)NC(=O)[C@H](CCSC)NC(=O)[C@H](CCC(=O)O)NC(=O)[C@H](Cc1ccc(O)cc1)NC(=O)[C@@H](NC(=O)[C@H](CC(C)C)NC(=O)[C@H](CC(=O)O)NC(=O)[C@H](CC(C)C)NC(=O)[C@H](CC(C)C)NC(=O)[C@@H](NC(=O)[C@@H](NC(=O)[C@H](CC(N)=O)NC(=O)[C@@H](NC(=O)[C@H](CCC(N)=O)NC(=O)[C@@H](NC(=O)[C@H](CC(C)C)NC(=O)[C@@H](N)CO)[C@@H](C)O)[C@@H](C)CC)[C@@H](C)O)[C@@H](C)O)[C@@H](C)O)C(C)C)C(C)C)C(=O)N[C@@H](CC(=O)O)C(=O)N[C@@H](CC(C)C)C(=O)N[C@@H](CCCCN)C(=O)N[C@@H](CCC(=O)O)C(=O)N[C@@H](CC(C)C)C(=O)O` has an IC50 of ~0.8 µM and 0.8 µM (Spike glycoprotein (MERS-CoV, UniProt K9N5Q8); spike-mediated cell-cell fusion; 293T/MERS/EGFP with Huh-7; 4 h).
The IC50 of `Cc1cc(N)c2cc(NC(=O)c3cccc(-c4ccc(N(C)C)cc4)c3)ccc2n1` is reported as 17 µM (Lethal factor (Bacillus anthracis, UniProt P15917); enzyme activity, inhibitor, FRET; 30 min, 37 °C, together with: 20 µM peptide substrate).
With `CC(C)C[C@H](NC(=O)[C@@H](NC(=O)OCc1ccc([N+](=O)[O-])cc1)C(C)C)C(=O)N[C@@H](C[C@@H]1CCNC1=O)C(=O)c1nccs1` the IC50 was 36 µM (rep R3428I 3C-like proteinase; enzyme activity, inhibitor, HPLC; 60 min, 37 °C, together with: substrate 111 µM).
Under “binding potential BPND”, `O=S1(=O)c2ccc(F)cc2-c2ccc(N3CCN4CCC3CC4)cc21` [fluorine-18 labelled] is recorded as 2 ± 0.3 (Chrna7 (Mus musculus, UniProt P49582); mouse, cortex; dose not given, 90 min, unit not given; reference: cerebellum).
For `COc1ccc(/C=C/C(=O)N[C@@H](COC(=O)c2ccccc2)C(=O)NC2CCCCC2)cc1OC`, the IC50 was 154 µM (rep R3428I 3C-like proteinase; enzyme activity, inhibitor, HPLC substrate depletion; pH 4.0).
With `C[C@@H]1NC(=O)[C@H](CCCNC(=N)N)NC(=O)[C@H](CCCNC(=N)N)NC(=O)[C@H](CCCNC(=N)N)NC(=O)[C@H](CO)NC(=O)[C@@H]2CSSC[C@H](NC(=O)CN)C(=O)N[C@@H](CSSC[C@@H](C(N)=O)NC(=O)[C@H](CO)NC(=O)[C@H](CCCNC(=N)N)NC1=O)C(=O)N[C@@H](CO)C(=O)N[C@@H](Cc1c[nH]cn1)C(=O)N1CCC[C@H]1C(=O)N[C@@H](C)C(=O)N2` the IC50 was 0.177 µM (CHRNA7 (Homo sapiens, UniProt P36544); ion current, antagonist, two-electrode voltage clamp; Xenopus oocytes; holding -70 mV, together with: 100 µM acetylcholine).
With `C[As](O)O` the IC50 was roughly 0.02 µM (PGR (Homo sapiens, UniProt P06401); DNA binding, fluorescence polarization; together with: FITC-labelled GRE DNA).
With `O=C1Cc2ccccc2N1C1CCN([C@@H]2CC[C@@H]3CCCc4cccc2c43)CC1` the Ki was 0.00341 ± 0.00023 µM (OPRL1; radioligand displacement; together with: [3H]N/OFQ).
The IC50 of `CCC(=O)c1cnc2c(=O)[nH]c(N)nc2n1` is reported as 700 µM (Ricin A chain; recovery of translation, inhibitor, in vitro luciferase translation; rabbit reticulocyte lysate).
`CC(C)C[C@H](NC(=O)[C@@H](NC(=O)COc1ccc(O)cc1)C(C)C)C(=O)N[C@@H](C[C@@H]1CCNC1=O)C(=O)c1nc2ccccc2s1` has an IC50 of 1.2 µM (rep R3428I 3C-like proteinase; enzyme activity, inhibitor, HPLC; 60 min, 37 °C, together with: substrate 111 µM).
`COc1cc(/C=C/C(=O)N[C@H](COC(=O)c2ccccc2)C(=O)NC2CCCCC2)cc(OC)c1` has an IC50 of 80 µM (rep R3428I 3C-like proteinase; enzyme activity, inhibitor, HPLC substrate depletion; pH 4.0).

Some of these lines once more:
The IC50 of `O=C(/C=C/c1ccccc1)N[C@@H](c1ccccc1)[C@@H](OC(=O)c1ccccc1)C(=O)NC1CCCCC1` is reported as 43 µM (Replicase polyprotein 1a R3428I 3C-like proteinase; enzyme activity, inhibitor; pH 4.0).
`O=CN1CC[C@]23c4c5ccc(O)c4O[C@H]2[C@@H](O)C=C[C@H]3[C@H]1C5` has an IC50 of greater than 10 µM (Oprd1 (Mus musculus, UniProt P32300); mouse vas deferens).
The IC50 of `CSCC[C@H](NC(=O)[C@H](CC(=O)O)NC(=O)[C@H](CC(=O)O)NC(=O)[C@H](CC(=O)O)NC(=O)[C@@H](N)CO)C(=O)NCC(=O)N[C@@H](Cc1ccccc1)C(=O)NCC(=O)N[C@@H](CC(C)C)C(=O)N[C@@H](Cc1ccccc1)C(=O)N[C@@H](CC(=O)O)C(=O)O` is reported as 30 ± 4 µM (Shiga-like toxin 2 subunit A, A1 fragment (UniProt P09385); ribosome depurination; yeast ribosomes; pH 7.4).
With `CC(C)C[C@@H]1NC(=O)[C@H](CCC(=O)O)NC(=O)[C@@H]2CCCN2C(=O)[C@H](Cc2c[nH]cn2)NC(=O)[C@H](CC(N)=O)NC(=O)[C@H](C(C)C)NC(=O)[C@H](CC(N)=O)NC(=O)[C@@H]2CSSC[C@H](NC(=O)CN)C(=O)N[C@@H](CSSC[C@@H](C(N)=O)NC1=O)C(=O)N[C@@H](CO)C(=O)N[C@@H](Cc1c[nH]cn1)C(=O)N1CCC[C@H]1C(=O)N[C@@H](C)C(=O)N2` the IC50 was 0.016 µM (Chrna3/Chrnb2/Chrna6, with beta3 subunit (Rattus norvegicus, UniProt P04757+P12390+P43143); ion current, antagonist, two-electrode voltage clamp; Xenopus laevis oocytes; together with: 100 µM acetylcholine).
